Published values gathered from unrelated publications.
Protocols differ between the studies behind these lines. Several values in a cell are separate wells, animals, samples, runs or records. Numbers after ± are the reported error.
Cell line: A2780

| Compound | test | setting | IC50 |
| --- | --- | --- | --- |
| C1=CCC=C1.[Cl][Au-]1([Cl])[N+](=P(c2ccccc2)(c2ccccc2)[c-]2cccc2)Cc2cccc[n+]21.[Fe+2].[O-][Cl+3]([O-])([O-])[O-] | cell growth or viability, MTT | 74 h | 30.1 µM |
| CC(C)c1cccc(C(C)C)c1[N+]#[C][Pd-]([Cl])([Cl])=[C](Nc1cccc(CN[C](NC(C)(C)C)=[Au][Cl])c1)Nc1c(C(C)C)cccc1C(C)C | cell growth or viability | – | > 100 µM |
| O=C(N[c-]1cccc1)OCc1ccc(C(=O)O)cc1.[Fe+2].c1cc[cH-]c1 | cell growth or viability, MTT | 48 h | > 50 µM |
| Cc1c(C)n(-c2c(C(C)C)cccc2C(C)C)c(=[Se])n1-c1c(C(C)C)cccc1C(C)C.[Cl][Ag] | cell growth or viability | 72 h, 3D culture | 18.1 µM |
| [Fe+2].c1ccc(N=P(c2ccccc2)(c2ccccc2)[c-]2cccc2)cc1.c1ccc(N=P(c2ccccc2)(c2ccccc2)[c-]2cccc2)cc1 | cell growth or viability, MTT | 74 h | 40.3 µM |
| Cc1cc(C)c([N+]#[C][Pt-]([Cl])([Cl])=[C](Nc2cccc(CN[C](Nc3c(C)cc(C)cc3C)=[Au][Cl])c2)Nc2c(C)cc(C)cc2C)c(C)c1 | cell growth or viability | – | > 100 µM |
| C1=CCC=C1.[Cl][Pd-2]1([Cl])[N+](=P(c2ccccc2)(c2ccccc2)C2C=CC=C2)Cc2cccc[n+]21.[Fe+2] | cell growth or viability, MTT | 74 h | 17.4 µM |
| CC(C)c1cccc(C(C)C)c1[N+]#[C][Pd-]([Cl])([Cl])=[C](Nc1cccc(CN[C](Nc2c(C(C)C)cccc2C(C)C)=[Au][Cl])c1)Nc1c(C(C)C)cccc1C(C)C | cell growth or viability | – | > 100 µM |
| C[N+]1(C)CC[NH2+][Pt-2]1([OH])([Cl])([Cl])[O]C(=O)CCC(=O)O | cell viability, EZ4U | 96 h | 31 ± 6 µM |
| C=C1C(=O)[C@@]23CC[C@@H]4[C@](C)(COC(C)=O)CCC[C@@]4(CO)[C@@H]2[C@@H](O)C[C@@H]1C3 | cell growth or viability, MTT | – | 19.5 µM |
| CC12CCC3c4ccc(OCCCOc5no[n+]([O-])c5S(=O)(=O)c5ccccc5)c(Br)c4CCC3C1CCC2O (centres unmarked) | cell growth or viability, MTT | 48 h | 0.0286 µM |
| CC(C)c1cccc(C(C)C)c1-n1c(Cl)c(Cl)n(-c2c(C(C)C)cccc2C(C)C)c1=[Se].[Cl][Ag] | cell growth or viability, MTT | 72 h | 0.4 µM |
| COc1cccc(CNC[C@@](O)(COCc2ccccc2)[C@@H]2CC[C@@H](C)C[C@H]2OCc2ccccc2)c1 | cell growth or viability, MTT | 72 h | 1.4 µM |
| CCCCCCCCCCCCCCCCNC(=O)[O][Pt]([Cl])([Cl])[O]C(=O)CCC(=O)O.N.N | cell viability, MTT | 48 h | 0.26 ± 0.04 µM |
| Cc1cc(C)c([N+]#[C][Pt-]([Cl])([Cl])=[C](Nc2ccc(CN[C](NC(C)(C)C)=[Au][Cl])cc2)Nc2c(C)cc(C)cc2C)c(C)c1 | cell growth or viability | – | > 100 µM |
| c1ccc(-n2nc(-c3ccccn3)n[n+]2-c2ccccc2)cc1 | cell growth or viability, resazurin | 72 h | 74 µM |
| Cc1c([O][Ru][Cl])c(=O)ccn1CCCCn1ccc(=O)c([O][Ru][Cl])c1C.Cc1ccc(C(C)C)cc1.Cc1ccc(C(C)C)cc1 | cell growth or viability, MTT | 96 h | 41 µM |
| C[C@@H]1CC[C@@H]([C@](O)(COCc2ccccc2)Cn2cnc3ccccc32)[C@H](OCc2ccccc2)C1 | cell growth or viability, MTT | 72 h | 4.3 µM |
| CC(C)=CCC1=C([O-])C(=O)c2ccccc2C1=O.CC(C)=CCC1=C([O-])C(=O)c2ccccc2C1=O.[Cu+2].c1ccc(-c2ccccn2)nc1 | cell viability, MTT | 72 h | 1.3 ± 0.6 µM |

| Compound | test | setting | IC50 |
| --- | --- | --- | --- |
| CCCCCCCCC=CCCCCCCCC(=O)OCC1OC(n2ccc(N)nc2=O)C(F)(F)C1O (centres unmarked) | cell growth or viability, SRB | 72 h | 0.0025 µM |
| C[C@@H]1CC[C@@H]([C@@](O)(CNCc2ccc(F)cc2)COCc2ccc(F)cc2)[C@H](OCc2ccc(F)cc2)C1 | cell growth or viability, MTT | 72 h | 1.4 µM |
| CC(=O)OC[C@@]12CCC[C@@](C)(CO)[C@H]1CC[C@@]13C[C@@H](C[C@H](O)[C@H]12)[C@H](C)C3=O | cell growth or viability, MTT | – | > 20 µM |
| C[C@@H]1CC[C@@H]([C@@](O)(CNCc2cccc(F)c2)COCc2ccccc2)[C@H](OCc2ccccc2)C1 | cell growth or viability, MTT | 72 h | 0.91 µM |
| Cc1cc(C)c([N+]#[C][Pt-2]([Cl])([Cl])[C]#[N+]c2c(C)cc(C)cc2C)c(C)c1 | cell growth or viability | – | > 100 µM |
| C[C@@H]1CC[C@@H]([C@](O)(CNCc2ccc(F)cc2)COCc2ccccc2)[C@H](OCc2ccccc2)C1 | cell growth or viability, MTT | 72 h | 11.9 µM |
| CC(C)(C)N=[C](NCc1ccc(N)cc1)[AuH][Cl] | cell growth or viability | – | > 100 µM |
| [Fe+2].c1cc[cH-]c1.c1ccc(P(=NCc2ccccn2)(c2ccccc2)[c-]2cccc2)cc1 | cell growth or viability, MTT | 74 h | 36.7 µM |
| C=C1C(=O)[C@@]23CC[C@@H]4[C@](C)(COC(C)=O)CCC[C@@]4(COC(C)=O)[C@@H]2[C@@H](O)C[C@@H]1C3 | cell growth or viability, MTT | – | 18.8 µM |
| CC(C)c1cccc(C(C)C)c1[N+]#[C][Pd-2]([Cl])([Cl])[C]#[N+]c1c(C(C)C)cccc1C(C)C | cell growth or viability | – | > 100 µM |
| COc1ccc(CNC[C@](O)(COCc2ccccc2)[C@@H]2CC[C@@H](C)C[C@H]2OCc2ccccc2)cc1 | cell growth or viability, MTT | 72 h | 2.5 µM |
| C[N+]1(C)CC[NH2+][Pt-2]1([OH])([OH])([Cl])[Cl] | cell viability, EZ4U | 96 h | 50 ± 4 µM |
| CC(C)c1cccc(C(C)C)c1-n1ccn(-c2c(C(C)C)cccc2C(C)C)c1=[Se].[Cl][Au] | cell growth or viability, MTT | 72 h | 0.6 µM |
| CC(C)=CCC1=C([O-])C(=O)c2ccccc2C1=O.CC(C)=CCC1=C([O-])C(=O)c2ccccc2C1=O.[Cu+2].c1ccc(-c2ccnc3c2ccc2c(-c4ccccc4)ccnc23)cc1 | cell viability, MTT | 24 h | ~0.6 µM and 0.53 µM |
| O=C(OCc1ccc(F)cc1)N(Cc1cccc(CN2CCCCC2)c1)[c-]1cccc1.[Fe+2].c1cc[cH-]c1 | cell growth or viability, MTT | 48 h | 7 µM |
| CC(C)c1cccc(C(C)C)c1N1CCN(c2c(C(C)C)cccc2C(C)C)C1=[Se].[Cl][Au] | cell growth or viability | 72 h, 3D culture | 5.7 µM |
| C#CCN(C(=O)OCc1ccc(F)cc1)[c-]1cccc1.[Fe+2].c1cc[cH-]c1 | cell growth or viability, MTT | 48 h | 16.7 µM |
| CC(C)c1cccc(C(C)C)c1[N+]#[C][Pt-]([Cl])([Cl])=[C](Nc1cccc(CN[C](Nc2c(C(C)C)cccc2C(C)C)=[Au][Cl])c1)Nc1c(C(C)C)cccc1C(C)C | cell growth or viability | – | > 100 µM |
| Oc1ccccc1-c1nn(-c2ccccc2)[n+](-c2ccccc2)n1 | cell growth or viability, resazurin | 72 h | 74 µM |
